{"data": "Experimental data pooled from the literature", "note": "Every numbered part comes from another study and shows a few of its results, in no order."}
{"data": "Study 1", "target": "RNA binding protein fox-1 homolog 2, RRM domain, GST-SBP tag (RBFOX2, Homo sapiens, UniProt O43251-10, residues 100-194)", "method": "RNA Bind-n-Seq", "molecule type": "RNA", "matrix": "in vitro", "concentration": "365 nM", "setting": "natural RNA segment, single round, ends assumed", "baseline": "no-protein control", "direction": "higher = stronger binding", "constant ends, left off below": "GGGAGUUCUACAGUCCGACGAUC … UGGAAUUCUCGGGUGCCAA", "Target sequence (chain)": "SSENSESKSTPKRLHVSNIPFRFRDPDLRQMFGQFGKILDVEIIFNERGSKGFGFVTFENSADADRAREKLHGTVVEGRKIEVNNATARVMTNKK"}
{"Strand": "AUGCUGUACUAUUCCACCCUUUGGACGCCUCAUCCAGGACGCAGAGGACUCUAGGUUUAACAUUUUGUACAAAAUGGAACCUGUUAAUCAUAUUAAAGCACAUAUGUAUA", "RBNS enrichment (R)": 0.656}
{"Strand": "UACAUGGGAGAGUCCUGCCUUACUUCUCCUGGACUGGCUUCCUCUUUGAGAAAAUGCACAAAGCUCUGGGAGAAAGCAGCUACCAAGACUAUCUGGAACUGUGUCUGUCA", "RBNS enrichment (R)": 0.623}
{"Strand": "UGGCAAAGGUUUUCUGGAAAGAACAAGUUUCUCAAAGGACUUUCUUCCUCUAGAAUGUUCAUUUUAUGAGAUCGCUAUCUGUAAGUCCAGUUGGAUUACAGGAAUACUUG", "RBNS enrichment (R)": 0.255}
{"Strand": "GGAAACGGAAUAAAAAUCUCUUAGAAACUUUUGCAGAUAAUUUGAUGUUGGGCAAAUAUAUAUAAUUAUUUUUUCUGGUAAAUUCAUGUCAGUAAUUUGUUGAAGAGUUA", "RBNS enrichment (R)": 0.957}
{"Strand": "ACUAUAUUCAUUUAGUCACUAUAGUGGAUCUCUUCUACUGCAAGUAUUCAUCUGAUUUUUAAAUUAUGUAAAAUGUAAAUCAGCCAAGUAUGUCAUCCGUUAUAGUUUCC", "RBNS enrichment (R)": 0.505}
{"data": "Study 2", "Substance": "PhoQ, residues 284 288 289 292 302 303 AMDMFI", "method": "Sort-seq", "item": "YFP reporter", "matrix": "E. coli", "setting": "PhoQ-PhoP variant library", "together with": "10 µM Mg2+", "baseline": "high Mg2+ state", "direction": "higher = stronger signaling"}
{"target": "PhoP, residues 12 14 15 18 19 QYCSL (Escherichia coli, UniProt P23836)", "fold induction": 0.816}
{"target": "PhoP, residues 12 14 15 18 19 STHWV (Escherichia coli, UniProt P23836)", "fold induction": 1.26}
{"target": "PhoP, residues 12 14 15 18 19 SHWTV (Escherichia coli, UniProt P23836)", "fold induction": 1.4}
{"data": "Study 3", "target": "Interferon regulatory factor 3, full length, phosphomimetic (IRF3, Homo sapiens, UniProt Q14653, residues 1-427, S386D/S396D/S398D/S402D/T404D/S405D)", "method": "protein-binding microarray", "molecule type": "double-stranded DNA, one strand shown", "matrix": "in vitro", "concentration": "2540 nM top", "setting": "60-bp whole probe", "together with": "salmon DNA 0.4 mg/ml", "baseline": "random background probes", "direction": "higher = stronger binding", "constant ends, left off below": "GCCTAGCAC … GTGCTAGGTCTTGATTCGCTTGACGCTGCTG", "Residues (chain)": "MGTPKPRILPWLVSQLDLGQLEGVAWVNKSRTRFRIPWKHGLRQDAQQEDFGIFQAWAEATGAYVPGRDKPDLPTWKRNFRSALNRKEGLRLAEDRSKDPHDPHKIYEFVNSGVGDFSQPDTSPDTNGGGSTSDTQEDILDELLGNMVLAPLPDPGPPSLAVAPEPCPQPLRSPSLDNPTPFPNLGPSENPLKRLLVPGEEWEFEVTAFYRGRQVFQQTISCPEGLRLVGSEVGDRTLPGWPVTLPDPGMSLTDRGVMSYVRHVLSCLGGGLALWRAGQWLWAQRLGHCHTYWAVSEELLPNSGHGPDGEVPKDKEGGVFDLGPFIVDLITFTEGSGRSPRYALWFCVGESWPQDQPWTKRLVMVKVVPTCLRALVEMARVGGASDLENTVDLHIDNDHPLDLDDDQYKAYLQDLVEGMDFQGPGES"}
{"Strand": "TTAGATTTCGGTTTCGGTTA", "fitted relative affinity [z-score]": 9.1}
{"Strand": "TCATTTCTCTGTTCTAGACT", "fitted relative affinity [z-score]": 3.11}
{"Strand": "TAAGATATCAGACTGGATTA", "fitted relative affinity [z-score]": 0.134}
{"Strand": "TCATCTCCATTTTTCTAACT", "fitted relative affinity [z-score]": 2.3}
{"Strand": "GACGATCTCACTTTCGAGAC", "fitted relative affinity [z-score]": 2.02}
{"data": "Study 4", "target": "Histone acetyltransferase KAT6A, winged helix 2, GST fusion (KAT6A, Homo sapiens, UniProt Q92794, residues 85-181)", "method": "protein binding microarray", "molecule type": "double-stranded DNA, one strand shown", "matrix": "in vitro", "concentration": "not given", "setting": "8-mer, flanks averaged, mean of 2 arrays, mostly near background", "baseline": "not given", "direction": "higher = stronger binding", "Residues (chain)": "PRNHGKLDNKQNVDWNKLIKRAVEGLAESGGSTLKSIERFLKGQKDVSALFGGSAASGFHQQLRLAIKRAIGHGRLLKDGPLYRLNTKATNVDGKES"}
{"Strand": "CGACACTC", "E-score": 0.0876}
{"Strand": "CCAGCTGA", "E-score": 0.102}
{"Strand": "CAGCCGAA", "E-score": 0.0578}
{"Strand": "CCGAAGTC", "E-score": -0.116}
{"Strand": "AGAACGAC", "E-score": -0.107}
{"Strand": "TAAAAACA", "E-score": -0.109}
{"Strand": "AGGACCCA", "E-score": -0.129}
{"note": "Excerpt of the above (study 2):"}
{"target": "PhoP, residues 12 14 15 18 19 QYCSL (Escherichia coli, UniProt P23836)", "fold induction": 0.816}
{"target": "PhoP, residues 12 14 15 18 19 STHWV (Escherichia coli, UniProt P23836)", "fold induction": 1.26}
{"target": "PhoP, residues 12 14 15 18 19 SHWTV (Escherichia coli, UniProt P23836)", "fold induction": 1.4}
